Measured values gathered from unrelated publications.
Compare with care: the assays were run in different laboratories. Values joined by “and” are separate records of one study, mostly repeats; a detail may differ. ± gives the spread as reported.
Chain of UniProt P08183 (whole entry, looked up): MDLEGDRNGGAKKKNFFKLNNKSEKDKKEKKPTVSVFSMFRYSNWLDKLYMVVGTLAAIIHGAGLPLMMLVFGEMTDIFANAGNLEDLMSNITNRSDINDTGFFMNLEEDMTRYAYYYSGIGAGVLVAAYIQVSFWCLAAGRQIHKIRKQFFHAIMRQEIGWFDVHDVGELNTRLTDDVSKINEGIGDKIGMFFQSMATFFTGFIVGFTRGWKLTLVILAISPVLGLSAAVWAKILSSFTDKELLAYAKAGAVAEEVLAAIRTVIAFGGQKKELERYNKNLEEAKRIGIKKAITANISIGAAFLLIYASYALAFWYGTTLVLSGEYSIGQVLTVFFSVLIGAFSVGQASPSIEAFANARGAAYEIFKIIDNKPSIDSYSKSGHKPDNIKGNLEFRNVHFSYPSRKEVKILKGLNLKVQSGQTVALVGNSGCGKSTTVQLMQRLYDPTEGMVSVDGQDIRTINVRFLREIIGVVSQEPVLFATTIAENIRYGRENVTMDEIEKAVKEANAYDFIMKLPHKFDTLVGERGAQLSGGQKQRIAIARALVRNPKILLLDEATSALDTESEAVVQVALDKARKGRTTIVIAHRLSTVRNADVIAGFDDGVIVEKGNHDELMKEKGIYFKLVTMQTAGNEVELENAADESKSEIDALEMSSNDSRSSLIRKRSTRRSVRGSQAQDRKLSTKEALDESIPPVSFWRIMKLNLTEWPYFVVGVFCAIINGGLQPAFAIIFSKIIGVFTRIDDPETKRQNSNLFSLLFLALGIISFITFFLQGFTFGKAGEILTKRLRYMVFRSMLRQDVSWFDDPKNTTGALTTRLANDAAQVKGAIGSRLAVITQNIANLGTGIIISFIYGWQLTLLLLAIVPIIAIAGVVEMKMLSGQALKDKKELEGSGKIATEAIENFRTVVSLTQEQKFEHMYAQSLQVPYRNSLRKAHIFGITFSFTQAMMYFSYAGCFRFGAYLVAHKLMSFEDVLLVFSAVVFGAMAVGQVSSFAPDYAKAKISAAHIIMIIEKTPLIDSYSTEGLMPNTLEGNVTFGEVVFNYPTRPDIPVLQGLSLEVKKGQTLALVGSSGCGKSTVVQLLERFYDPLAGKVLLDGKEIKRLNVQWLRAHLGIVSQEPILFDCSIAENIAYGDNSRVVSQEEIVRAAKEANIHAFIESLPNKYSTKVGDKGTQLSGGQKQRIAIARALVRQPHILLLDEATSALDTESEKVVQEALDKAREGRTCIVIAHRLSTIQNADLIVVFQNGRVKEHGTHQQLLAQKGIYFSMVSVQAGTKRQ

Compound	target or system	test	system	setting	scale	quantity	value
CN1C[C@H](COc2nccc3c(NCc4ccco4)cc(Cl)nc23)OC1=O	–	–	rabbit NZW female, isolated Langendorff heart	10 µM, 15 min	–	QT interval	196 ms
COc1cc(C(=O)N2CCC3(CC2)CC(=O)c2c(cnn2C(C)C)C3)cc(-c2ccc(C(=O)O)cc2)n1	–	measured: direct LDL cholesterol	human, fasting serum	30 mg every 12 h, day 13, adjusted geometric mean	relative to: baseline and placebo	placebo-adjusted change from baseline	-2.2%
c1ccc(CN2CCCN3CCN(Cc4ccccc4)CCCN(CC2)Cc2cccc(n2)C3)cc1	–	–	64Cu complex	24 h, 70 °C, added: DOTA excess	–	intact complex	91%
C=CC(=O)Nc1cc(Nc2nccc(-c3cn(C4CC4)c4ccccc34)n2)c(OC)cc1N(C)CCN(C)C	–	metabolism, substrate	rat liver microsomes	40 min, 37 °C, added: NADPH 1 mM	–	Km	5.25 µM
Cc1cc(C(=O)NC(C)(C)COc2cccc3c2C(N)=NS(=O)(=O)N3)cc(C)n1	human peripheral blood lymphocytes	CBPI, concurrent micronucleus test	–	250 µg/mL, 24 h	relative to: vehicle control	cytotoxicity	2%
O=C(O)CCC(=O)O.[2H]C([2H])([2H])Oc1cc(C)c2[nH]ccc2c1CN1CC[C@@H](C2CC2)C[C@H]1c1ccc(C(=O)O)cc1	–	–	healthy Chinese subjects	600 mg, single ascending dose	–	TEAE hyponatremia	16.7%
CS(=O)(=O)c1ccc(NC(=O)CSc2nnc(-c3ccccc3F)n2-c2ccccc2)cc1	–	–	octanol/buffer	pH 7.4	–	logD	1.69
COc1ncc(-c2nc3c(n2C(C)C)[C@H](c2ccc(Cl)cc2)N(c2cc(Cl)cn(C)c2=O)C3=O)c(OC)n1	–	–	human patients, plasma	oral, 50 mg, high-dose arm, cycle 1 day 1	–	AUC(0-t) geometric mean	8030 ng·h/mL
CC[C@H](C)[C@H](NC(C)=O)C(=O)N[C@H]1CSSC[C@@H](C(=O)N[C@H](C(N)=O)[C@@H](C)O)NC(=O)[C@H](CCCNC(=N)N)NC(=O)[C@H](Cc2c[nH]cn2)NC(=O)[C@](C)(CC)NC(=O)CNC(=O)[C@H](Cc2c[nH]c3ccccc23)NC(=O)[C@H](CC(=O)O)NC(=O)[C@H](CCC(N)=O)NC(=O)[C@H](Cc2c[nH]c3ccccc23)NC(=O)[C@H](C(C)C)NC1=O	–	isocratic RP-HPLC, C18	32% acetonitrile, phosphate pH 7.4, 1% TFA	25 °C	–	log retention factor	0.082
[O]=[Co].[O]=[Co][O][Co]=[O]	–	–	rat, female, urine, 24-h collection	oral gavage, single, 300 mg/kg (220 mg Co/kg), day 2, vehicle 0.5% HPMC	–	creatinine-corrected cobalt concentration	0.1 µg/µmol creatinine
COc1cc2c3c(n(CCCN4CCOCC4)c(=O)c2cc1OC)-c1cc2c(cc1C3=O)OCO2	–	–	beagle dog, female, plasma	oral, 860 mg/m^2, gelatin capsule	–	CL/F	50 L/h/m² and 43600 L/h/m²
O=C(Nc1ccc(Cl)cc1)Nc1ccc(Cl)c(Cl)c1	–	reverse phase LC, C18	acetonitrile gradient, 0.1% formic acid	converted from retention time	relative to: Valko CHI standards	chromatographic hydrophobicity index	122
CO[C@@H]1[C@H](OC(=O)N2CC(CCN3CCOCC3)C2)CC[C@]2(CO2)[C@H]1[C@@]1(C)O[C@@H]1CC=C(C)C	–	–	humans	subcutaneous, 1.8 mg twice weekly for 4 weeks, day 28	relative to: baseline	diastolic blood pressure	0 ± 8.5 mmHg
C=CCN1CC(=O)N2[C@@H](Cc3ccc(O)cc3F)C(=O)N(Cc3cccc(N4CC(N5CCN(CC)CC5)C4)n3)C[C@@H]2N1C(=O)NCc1ccccc1	–	–	advanced solid tumour patients	oral, 45 mg twice daily, any grade, dose-escalation	–	treatment-related diarrhoea	0%
C[C@H]1CN(c2cccc(-c3ccc4ncnc(Nc5ncco5)c4c3)c2)CCO1	–	–	human liver microsomes	–	–	CLint	35 µL/min/mg
CC(C)n1c(Nc2cccnc2)nc2cnc(Nc3ccc(N4CCN(C)CC4)cc3)nc21	–	measured: nervous system disorders (SOC)	healthy human, male	oral, dose not given, CTCAE grade 1-3	–	subjects with TEAE	4.8%
COc1ccc2c(c1)CN(C(=O)CCN1CCC(Cc3ccccc3)CC1)CC[S@@+]2[O-]	–	telemetry	conscious male beagle dogs	intravenous, NG, 2 h	–	PQ interval	93 ± 12 ms
CCC(C)n1ncn(-c2ccc(N3CCN(c4ccc(OCC5COC(Cn6cncn6)(c6ccc(Cl)cc6Cl)O5)cc4)CC3)cc2)c1=O (stereo not shown)	–	measured: renal and urinary disorders	healthy human participants	oral, 200 mg, compound alone cohort	–	adverse event incidence	27%
CC(C)(F)C[C@H](N[C@@H](c1ccc(-c2ccc(S(C)(=O)=O)cc2)cc1)C(F)(F)F)C(=O)NC1(C#N)CC1	–	–	MES buffer	100 µM, 23 h, pH 5.5, 37 °C, added: cysteine 10 mM	–	cysteine adduct formation	< 1%
COc1cc(Nc2ncc3c(n2)-c2ccc(Cl)cc2C(c2c(F)cccc2OC)=NC3)ccc1C(=O)O	–	–	patients	oral, dose not given, grade 4, any attribution, added: pembrolizumab	–	decreased neutrophil count incidence	13%
CC(C)(C)c1ccc(O)c(CN(Cc2cc(C(C)(C)C)ccc2O)C2CCC(NC(N)=O)CC2)c1 (stereo not shown)	–	–	mouse brain	5 ng/g, 3 months, 4 °C, refrigerator storage	–	recovery	99.1 ± 0.95%
OCc1nc2ccc(NCc3ccc(C(F)(F)F)cc3)cc2[nH]1	–	–	Balb/c mice, male, heart	oral, 10 mg/kg, 48 h	–	tissue concentration	not detected
CNC(=O)c1ccc(-c2nn3c(Cc4ccc5ncccc5c4)cnc3[nH]c2=O)cc1F	–	–	human plasma	stored at -70 °C	–	freeze-thaw stability	5 cycles
CCN1CCN(Cc2ccc(NC(=O)c3ccc(C)c(NC(=O)c4cncc(-c5cccs5)c4)c3)cc2C(F)(F)F)CC1	–	LC-MS/MS	C57BL/6 mouse, plasma	intraperitoneal, 30 mg/kg single dose, 24 h	–	plasma concentration	9 ng/mL and 20 ng/mL and 8 ng/mL
Fc1ccc([C@@H]2COC[C@H](c3ccc4c(c3)OCCO4)N2)c2ccccc12	–	shake-flask, 1-octanol/buffer	–	pH 7.4	–	logD	> 4.7

Compound	target or system	test	system	setting	scale	quantity	value
Cc1cc(Nc2cc3ncccc3c(N[C@@H]3C[C@H]4CC[C@@H](C3)N4CCC#N)n2)n[nH]1	–	–	healthy human	oral, 10 mg multiple doses, 14 days	–	subjects with epistaxis	0%
CC(C)(C)c1ccc([C@H]2COC[C@H](C3CCCC3)N2)cc1	–	shake-flask, 1-octanol/buffer	–	pH 7.4	–	logD	> 4.7
Nc1cc(F)ccc1NC(=O)c1ccc(CNC(=O)/C=C/c2cccnc2)cc1	–	–	octanol/buffer	pH 7.4	–	logD	0.12
C=CCn1c(=O)c2cnc(Nc3ccc(N4CCN(C)CC4)cc3)nc2n1-c1ccc2c(n1)[C@@](O)(CC)CC2	–	–	A-427, female NOD/SCID mouse xenograft, plasma	oral, 40 mg/kg once daily	–	AUC(0-24)	14200 ng·h/mL
C/C=C/C[C@@H](C)C(=O)[C@H]1C(=O)N[C@@H](C(C)C)C(=O)N(C)CC(=O)N(C)[C@@H](CC(C)C)C(=O)N[C@@H](C(C)C)C(=O)N(C)[C@@H](CC(C)C)C(=O)N[C@@H](C)C(=O)N[C@H](C)C(=O)N(C)[C@@H](CC(C)C)C(=O)N(C)[C@@H](CC(C)C)C(=O)N(C)[C@@H](C(C)C)C(=O)N1C	–	–	Sprague Dawley rat, plasma	intravenous infusion, 0.09 mg/h/kg, 4 h, 4.5 h constant infusion	–	free plasma concentration	32.3 ng/mL
CCC(=O)N(CCC(c1ccc2c(c1)OCO2)c1ccccc1OC)Cc1ccccc1 (stereo not shown)	–	–	female athymic nude mouse, blood	i.p., 60 mg/kg twice daily, 14 days, group mean	–	GGT	0 U/L
Cc1cc(NC2CCN(C(=O)OC3CCN(C(=O)/C=C/CN(C)C)C3)CC2)n2ncc(C(C)C)c2n1 (stereo not shown)	–	Phase I dose escalation CTCAE v4.0, measured: dermatitis acneiform	patients with advanced solid tumours	dose not given, TIW dosing any grade	–	patients with adverse event	0%
CCOC(=O)N1C[C@@H](c2ccc(Cl)cc2)N[C@@H](c2cccc(Br)c2)C1	–	shake-flask, 1-octanol/buffer	–	pH 7.4	–	logD	> 4.7
O=C(CC1OCCN(Cc2ccccc2)C1=O)Nc1ccc2c(c1)OCCO2 (stereo not shown)	–	–	octanol/buffer	pH 7.4	–	logD	2.45
NC1(C(=O)N[C@@H](CCO)c2ccc(Cl)cc2)CCN(c2nc[nH]c3nccc2-3)CC1	–	LC-MS/MS, non-compartmental	human patients, plasma	160/400 mg cohort, cycle 0, median, added: enzalutamide	–	Tmax	2 h
CC(C)(C(=O)N1CCOc2c(C#N)cncc2C1)C(F)F	–	measured: ALT increased	human	oral, 40 mg, CSF pharmacokinetic cohort	–	subjects with adverse event	0%
CC[C@H](CO)N(CCN(N=O)[C@H](CC)CO)N=O	Salmonella typhimurium	mutagenicity, Ames plate incorporation	TA98	1500 µg/plate, without S9, methanol	–	revertant colonies per plate	27.7 ± 2
Cc1cc(C)c(CNC(=O)c2cc(Cl)c3c(c2C)O[C@@](C)([C@H]2CC[C@H](N(C)C)CC2)O3)c(=O)[nH]1	–	CTCAE v4.0	human, relapsed/refractory NHL	oral, 200 mg once daily, onset after cycle 1 day 1	–	grade ≥3 TEAE patients	66.7%
CC[C@H]1[C@@H](O)[C@@H]2[C@H](CC[C@]3(C)[C@@H]([C@H](C)CCNC(=O)NS(=O)(=O)c4ccc(C(C)(C)C)cc4)CC[C@@H]23)[C@@]2(C)CC[C@@H](O)C[C@@H]12	ABCB1 (Homo sapiens, UniProt P08183)	–	human, plasma	dose not given, geometric mean, alone	–	half-life	10.6 h
CCOc1c([C@H](C)n2nc(C)c3c(N)ncnc32)cc(Cl)c(F)c1[C@@H]1CNC(=O)C1	–	measured: ΔQTcF ≤ 30 ms	previously treated B-cell malignancy	oral, 30 mg once daily, baseline QTcF ≤450 ms	–	share of ECG observations	99.1%
C=CC(=O)N1CCC([C@@H]2CCNc3c(C(N)=O)c(-c4ccc(Oc5ccccc5)cc4)nn32)CC1	–	–	rat plasma	2 ng/mL, 21 days, -80 °C	relative to: nominal concentration	stability relative error	-6.4%
Cc1cc(-c2nccc3c2ccn3CC(=O)Nc2ccc(-c3cnccn3)cn2)ccn1	–	–	healthy human volunteers	oral, 20 mg once daily, 14 days, multiple ascending dose	–	skin disorder TEAEs	0%
CC(C)Nc1ccnc(Nc2cccc(-c3ccccc3)c2)n1	–	–	MDCKII-WT cells	10 µM, pH 7.4	relative to: Papp B-A over A-B	efflux ratio	2.33
C[C@@H](Oc1ccc(S(C)(=O)=O)cc1C(=O)N1C[C@@H]2C[C@]2(c2cc(C(F)(F)F)on2)C1)C(F)(F)F	–	–	elderly humans, plasma	oral, 50 mg once daily, single dose, geometric mean	–	Vz/F	384 L
O=C(Nc1nc2cccc(-c3ccc(CN4CCS(=O)(=O)CC4)cc3)n2n1)C1CC1	–	measured: regurgitation	rheumatoid arthritis patients	oral, 300 mg once daily, 4 weeks, any relatedness	–	treatment-emergent adverse events	5%
CCc1cc(C(=O)NC)c2nccc(N3CCc4c(cc(Cn5ccnc5)cc4-c4cn(C)nc4C(F)(F)F)C3=O)c2c1	–	–	Sprague Dawley rats	oral, 50 mg/kg once daily, 7 days	relative to: red blood cells	reticulocytes	5.45 ± 1.06%
Cc1cc(Nc2ccc(S(F)(F)(F)(F)F)cc2)n2nc(C(C)(F)F)nc2n1	Plasmodium vivax	12-lead Holter ECG	human malaria patients	oral, 400 mg, QTc above 450 ms	–	patients with QTcB above threshold	20%
CC[C@]1(O)C[C@H]2CN(CCc3c([nH]c4ccccc34)[C@@](C(=O)OC)(c3cc4c(cc3OC)N(C=O)[C@H]3[C@@](O)(C(=O)OC)[C@H](OC(C)=O)[C@]5(CC)C=CCN6CC[C@]43[C@@H]65)C2)C1	CHP-212 resistant subline R2 (heterozygous USP7 V517F)	cell viability	–	1.524 nM	–	viability	81.9% and 93.9%
COC(=O)c1ccc([C@@H]2COC(C)(C)[C@@H](c3ccc(Cl)c(Cl)c3)N2)cc1	–	shake-flask, 1-octanol/buffer	–	pH 7.4	–	logD	> 4.7

A few entries again:
Compound	target or system	test	system	setting	scale	quantity	value
CCN1CCN(Cc2ccc(NC(=O)c3ccc(C)c(NC(=O)c4cncc(-c5cccs5)c4)c3)cc2C(F)(F)F)CC1	–	LC-MS/MS	C57BL/6 mouse, plasma	intraperitoneal, 30 mg/kg single dose, 24 h	–	plasma concentration	9 ng/mL and 20 ng/mL and 8 ng/mL
Fc1ccc([C@@H]2COC[C@H](c3ccc4c(c3)OCCO4)N2)c2ccccc12	–	shake-flask, 1-octanol/buffer	–	pH 7.4	–	logD	> 4.7
Cc1cc(Nc2cc3ncccc3c(N[C@@H]3C[C@H]4CC[C@@H](C3)N4CCC#N)n2)n[nH]1	–	–	healthy human	oral, 10 mg multiple doses, 14 days	–	subjects with epistaxis	0%
